Measurements of several laboratories.
A part holds a random share of what one study measured. Changes are numbered by the printed parent chain.

Series 1 — target: UBE2D4 UBC core domain (UniProt Q9Y2X8); technique: yeast two-hybrid; medium: yeast; notes: mostly zero background; baseline: not given; reading: higher = stronger interaction
B1: RNF43 RING domain (UniProt Q68DV7); chain SGSSCSSAPVCAICLEEFSEGQELRVISCLHEFHRNCVDPWLHQHRTCPLCMFNITEGDSFS
B2: TRIM10 RING domain (UniProt Q9UDY6); chain SVTSLADEVNCPICQGTLREPVTIDCGHNFCRACLTRYCEIPGPDLEESPTCPLCKEPFRPGSFRP
B3: NSMCE1 RING domain (UniProt Q8WV22); chain RETYPDAVKICNICHSLLIQGQSCETCGIRMHLPCVAKYFQSNAEPRCPHCNDYWPHEIPKV
B4: TRIM38 RING domain (UniProt O00635); chain STKKMMEEATCSICLSLMTNPVSINCGHSYCHLCITDFFKNPSQKQLRQETFCCPQCRAPFHMDSLRP
B5: RFPL2 RING domain (UniProt O75678); chain MAALFQEASSCPVCSDYLEKPMSLECGCAVCLKCINSLQKEPHGEDLLCCCSSMVSRKNKIRR
B6: PHF7 RING domain (UniProt Q9BWX1); chain IQHGHVGEESCILCCEDLSQQSVENIQSPCCSQAIYHRKCIQKYAHTSAKHFFKCPQCNNRKEFPQEML
Residues (chain): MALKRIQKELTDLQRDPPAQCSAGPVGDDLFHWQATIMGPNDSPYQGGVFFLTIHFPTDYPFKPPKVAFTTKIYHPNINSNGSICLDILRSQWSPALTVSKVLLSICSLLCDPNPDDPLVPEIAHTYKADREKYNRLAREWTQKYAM
Molecule | lacZ reporter activity
B1 (RNF43 RING domain) | 7880
QLQDEEDDSLCRICMDAVIDCVLLECGHMVTCTKCGKRMSECPICRQYVVRAVHVF (RNF34 RING domain (UniProt Q969K3)) | 0
B2 (TRIM10 RING domain) | 0
B3 (NSMCE1 RING domain) | 0
B4 (TRIM38 RING domain) | 0
LKQVSIRENCCSLCCDEVADTQLKPCGHSDLCMDCALQLETCPLCRKEIVSRIRQI (RSPRY1 RING domain (UniProt Q96DX4)) | 0
B5 (RFPL2 RING domain) | 0
B6 (PHF7 RING domain) | 0

Series 2 — technique: protein-binding microarray; form: hairpin DNA; medium: in vitro; tested at: not given; baseline: not given; reading: higher = stronger binding
Target: Runt-related transcription factor 1, full length (RUNX1, Homo sapiens, UniProt Q01196-8, residues 1-480)
Notes: whole hairpin DNA, median over replicate spots
Oligonucleotide | median fluorescence [a.u.]
CTCAGTTCTGTCGGCTGGACTCCTGTCCAGCCGACAGAACTGAGACACTC (5mC at 32) | 1670
GAGGCCCAACCGCAACAGCCTCCTGGCTGTTGCGGTTGGGCCTCACACTC (5mC at 16) | 6830
GAGGCCTCGTGTGGTTGGCCTCCTGGCCAACCACACGAGGCCTCACACTC (5mC at 8) | 2130
GAGGCCCAACAGCAACAGCCTCCTGGCTGTTGCTGTTGGGCCTCACACTC | 1720
CTCAGTTCTGTGGGCTTGACTCCTGTCAAGCCCACAGAACTGAGACACTC | 1920
GAGGCCTGTTGTGGCGGGCCTCCTGGCCCGCCACAACAGGCCTCACACTC (5mC at 15 29) | 1990
CTCAGTTCTGTGGGCTGGACTCCTGTCCAGCCCACAGAACTGAGACACTC (5mC at 31) | 1760
GAGGCCCGTTGCGGTTGGCCTCCTGGCCAACCGCAACGGGCCTCACACTC (5mC at 7) | 6090

Series 3 — read-out: peptide-MHC binding; form: peptide; tested at: concentration not given
Target: HLA class I histocompatibility antigen, A alpha chain, allele A*80:01 (Homo sapiens, UniProt P04439)
Molecule | binding
TSDYINTSL | inactive
WTDLFDNKV | inactive
MHYKLDEVL | inactive
VTENKKIQY | inactive
ERTDLFFPV | inactive
VLKLRFWLI | inactive
EFVSANLAM | inactive
ISDEFMWRY | inactive
APVESMALF | inactive

Series 4 — target: CCNE1, cyclin fold, Cln2 fusion (human); technique: yeast growth competition, sequencing; medium: yeast; notes: strong parent motif; baseline: not given; reading: higher = stronger binding
Parent: viral docking peptide; TSVRRALFTGGSD; partner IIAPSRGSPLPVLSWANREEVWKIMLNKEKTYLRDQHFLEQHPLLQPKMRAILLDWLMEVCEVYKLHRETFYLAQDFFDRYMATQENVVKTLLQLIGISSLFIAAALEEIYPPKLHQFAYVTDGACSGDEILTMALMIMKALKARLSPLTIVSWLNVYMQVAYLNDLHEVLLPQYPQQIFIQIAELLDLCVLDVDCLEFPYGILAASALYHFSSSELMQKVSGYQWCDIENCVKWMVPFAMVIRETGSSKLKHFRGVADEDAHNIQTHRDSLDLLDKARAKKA
Change | normalised enrichment score
S12F | 5.06
S12E | 6.23
T9Y | 4.13
R4L | 1.13
L7I | 0.739
T9A | 4.28
R5E | -0.16
S2R | 5.48
G11E | 6.02
R5F | -0.172
T9N | 4.47
F8S | 0.106
S12P | 5.88
G11Q | 5.63
R4Y | 0.993
T9Q | 5.56
G11K | 5.04
F8A | -0.00846
R5S | 0.303
R5I | 0.626
R4I | 4.06
G11I | 5.04
V3I | 1.7
S2G | 6.18
V3Y | 3.51

A few entries again (series 4):
Change | normalised enrichment score
R4Y | 0.993
T9Q | 5.56
G11K | 5.04
F8A | -0.00846
R5S | 0.303
R5I | 0.626
